{"data": "Results from different studies", "note": "Parts stem from different laboratories: compare values within a part only.", "sequence of UniProt Q9Y2I7 (whole entry, looked up)": "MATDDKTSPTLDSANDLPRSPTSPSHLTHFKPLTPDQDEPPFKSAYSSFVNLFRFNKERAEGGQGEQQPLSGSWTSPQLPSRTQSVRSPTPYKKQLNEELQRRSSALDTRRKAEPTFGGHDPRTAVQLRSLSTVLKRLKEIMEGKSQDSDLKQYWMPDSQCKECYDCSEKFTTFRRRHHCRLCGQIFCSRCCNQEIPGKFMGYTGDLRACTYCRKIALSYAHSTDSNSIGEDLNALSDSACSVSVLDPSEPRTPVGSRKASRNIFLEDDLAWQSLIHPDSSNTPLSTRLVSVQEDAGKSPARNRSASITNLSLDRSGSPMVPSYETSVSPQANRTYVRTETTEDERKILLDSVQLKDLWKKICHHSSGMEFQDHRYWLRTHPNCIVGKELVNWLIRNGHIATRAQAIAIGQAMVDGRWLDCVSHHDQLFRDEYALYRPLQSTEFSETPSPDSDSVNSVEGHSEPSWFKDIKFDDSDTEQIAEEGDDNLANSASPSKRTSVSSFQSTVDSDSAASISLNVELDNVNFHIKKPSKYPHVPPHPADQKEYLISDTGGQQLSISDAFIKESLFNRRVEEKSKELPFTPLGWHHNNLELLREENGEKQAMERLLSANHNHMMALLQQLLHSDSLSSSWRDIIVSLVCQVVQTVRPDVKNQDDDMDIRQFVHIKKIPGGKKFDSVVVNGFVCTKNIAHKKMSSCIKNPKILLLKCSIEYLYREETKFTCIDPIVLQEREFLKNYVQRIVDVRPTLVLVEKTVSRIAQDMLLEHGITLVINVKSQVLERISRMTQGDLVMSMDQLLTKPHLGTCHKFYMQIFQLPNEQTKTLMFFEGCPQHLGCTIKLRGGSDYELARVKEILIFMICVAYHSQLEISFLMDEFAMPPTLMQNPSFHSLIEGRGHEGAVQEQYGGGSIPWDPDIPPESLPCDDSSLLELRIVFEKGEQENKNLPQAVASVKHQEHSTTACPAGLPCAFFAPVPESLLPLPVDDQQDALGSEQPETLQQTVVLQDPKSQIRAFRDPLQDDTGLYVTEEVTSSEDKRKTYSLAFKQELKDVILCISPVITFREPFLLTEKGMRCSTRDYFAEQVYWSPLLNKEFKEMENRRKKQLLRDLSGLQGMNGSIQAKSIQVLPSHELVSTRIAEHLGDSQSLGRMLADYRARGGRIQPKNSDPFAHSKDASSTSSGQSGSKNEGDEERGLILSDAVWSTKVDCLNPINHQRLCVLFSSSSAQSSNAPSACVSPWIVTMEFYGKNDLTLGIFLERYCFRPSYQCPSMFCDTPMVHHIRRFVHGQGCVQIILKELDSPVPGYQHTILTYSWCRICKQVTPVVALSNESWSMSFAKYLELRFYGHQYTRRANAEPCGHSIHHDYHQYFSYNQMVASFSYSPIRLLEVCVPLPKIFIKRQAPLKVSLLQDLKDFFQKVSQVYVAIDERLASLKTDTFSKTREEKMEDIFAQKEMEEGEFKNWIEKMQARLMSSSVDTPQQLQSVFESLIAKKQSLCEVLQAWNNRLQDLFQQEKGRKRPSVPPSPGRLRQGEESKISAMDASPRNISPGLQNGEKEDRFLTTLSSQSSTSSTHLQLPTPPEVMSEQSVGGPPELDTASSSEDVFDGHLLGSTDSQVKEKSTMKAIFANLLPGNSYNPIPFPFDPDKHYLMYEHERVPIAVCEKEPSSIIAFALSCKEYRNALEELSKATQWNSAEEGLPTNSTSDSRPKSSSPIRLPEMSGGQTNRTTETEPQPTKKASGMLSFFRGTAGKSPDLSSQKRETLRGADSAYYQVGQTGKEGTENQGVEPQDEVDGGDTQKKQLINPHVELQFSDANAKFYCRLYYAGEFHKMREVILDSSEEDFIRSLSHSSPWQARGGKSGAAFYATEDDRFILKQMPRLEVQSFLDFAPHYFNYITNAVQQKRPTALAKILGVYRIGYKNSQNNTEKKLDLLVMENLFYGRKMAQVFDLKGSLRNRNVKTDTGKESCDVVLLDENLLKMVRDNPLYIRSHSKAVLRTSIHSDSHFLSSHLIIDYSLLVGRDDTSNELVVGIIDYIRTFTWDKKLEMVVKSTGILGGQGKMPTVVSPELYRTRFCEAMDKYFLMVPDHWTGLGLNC", "sequence of UniProt P78362 (whole entry, looked up)": "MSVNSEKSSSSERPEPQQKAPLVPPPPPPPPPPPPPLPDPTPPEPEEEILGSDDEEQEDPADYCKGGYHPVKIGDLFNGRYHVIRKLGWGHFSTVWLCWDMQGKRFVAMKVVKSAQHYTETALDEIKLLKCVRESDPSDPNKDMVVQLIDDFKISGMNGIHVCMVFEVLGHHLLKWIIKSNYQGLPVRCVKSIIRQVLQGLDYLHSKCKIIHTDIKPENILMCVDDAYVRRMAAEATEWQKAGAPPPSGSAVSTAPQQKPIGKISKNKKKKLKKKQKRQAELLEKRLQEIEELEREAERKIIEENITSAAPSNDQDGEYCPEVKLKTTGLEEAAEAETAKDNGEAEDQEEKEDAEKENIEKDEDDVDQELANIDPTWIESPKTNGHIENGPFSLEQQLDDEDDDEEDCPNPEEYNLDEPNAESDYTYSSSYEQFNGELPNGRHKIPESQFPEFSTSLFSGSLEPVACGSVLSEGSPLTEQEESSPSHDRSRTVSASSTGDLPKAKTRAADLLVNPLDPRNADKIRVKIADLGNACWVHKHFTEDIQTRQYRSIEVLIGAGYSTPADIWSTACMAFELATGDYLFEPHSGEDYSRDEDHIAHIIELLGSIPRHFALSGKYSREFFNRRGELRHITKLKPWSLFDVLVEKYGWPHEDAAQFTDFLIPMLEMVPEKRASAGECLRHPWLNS", "sequence of UniProt P31749 (whole entry, looked up)": "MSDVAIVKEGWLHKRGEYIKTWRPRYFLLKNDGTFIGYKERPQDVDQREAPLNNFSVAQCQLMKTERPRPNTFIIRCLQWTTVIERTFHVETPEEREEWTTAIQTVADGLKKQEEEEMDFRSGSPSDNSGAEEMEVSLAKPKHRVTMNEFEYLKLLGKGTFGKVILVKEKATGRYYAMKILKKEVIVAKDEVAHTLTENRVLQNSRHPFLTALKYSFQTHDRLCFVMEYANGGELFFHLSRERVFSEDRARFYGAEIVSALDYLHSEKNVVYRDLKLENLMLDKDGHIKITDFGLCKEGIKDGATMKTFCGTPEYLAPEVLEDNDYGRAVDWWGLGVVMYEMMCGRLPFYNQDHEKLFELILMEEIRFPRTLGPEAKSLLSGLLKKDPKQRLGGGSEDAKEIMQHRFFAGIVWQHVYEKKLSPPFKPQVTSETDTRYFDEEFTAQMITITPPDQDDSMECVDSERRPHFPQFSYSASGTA", "sequence of UniProt Q00532 (whole entry, looked up)": "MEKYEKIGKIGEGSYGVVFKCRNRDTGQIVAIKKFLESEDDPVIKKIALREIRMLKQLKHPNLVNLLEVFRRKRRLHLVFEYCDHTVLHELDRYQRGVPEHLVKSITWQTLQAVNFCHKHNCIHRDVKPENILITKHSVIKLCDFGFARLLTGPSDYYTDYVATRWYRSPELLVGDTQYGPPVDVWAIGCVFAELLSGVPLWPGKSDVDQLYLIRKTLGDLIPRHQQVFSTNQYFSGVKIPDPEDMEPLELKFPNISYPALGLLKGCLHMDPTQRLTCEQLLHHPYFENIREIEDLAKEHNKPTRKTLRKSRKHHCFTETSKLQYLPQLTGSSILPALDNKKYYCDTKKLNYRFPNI"}
{"data": "Set 1", "target": "Casein kinase II subunit alpha' (CSNK2A2, Homo sapiens, UniProt P19784)", "observed": "enzyme activity", "mode": "inhibitor", "concentration": "0.5 µM", "relative to": "control", "sequence of UniProt P19784 (whole entry, looked up)": "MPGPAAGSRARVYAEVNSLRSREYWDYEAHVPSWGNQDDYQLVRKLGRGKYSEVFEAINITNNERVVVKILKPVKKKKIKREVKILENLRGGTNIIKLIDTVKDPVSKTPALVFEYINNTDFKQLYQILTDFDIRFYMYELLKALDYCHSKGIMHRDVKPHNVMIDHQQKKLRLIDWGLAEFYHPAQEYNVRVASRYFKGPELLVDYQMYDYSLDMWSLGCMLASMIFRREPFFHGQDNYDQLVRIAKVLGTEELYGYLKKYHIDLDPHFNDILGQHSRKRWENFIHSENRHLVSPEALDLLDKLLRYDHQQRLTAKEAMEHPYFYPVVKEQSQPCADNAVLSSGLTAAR"}
{"Structure (SMILES)": "O=C(c1ccccc1)c1ccc(N2CCOCC2)cc1O", "remaining activity [%]": 96.8}
{"Structure (SMILES)": "c1cc(-c2cnn3cc(-c4ccc(OCCN5CCCCC5)cc4)cnc23)ccn1", "remaining activity [%]": 34.6}
{"Structure (SMILES)": "O=Nc1c(-c2c(O)[nH]c3cc(Br)ccc23)[nH]c2ccccc12", "remaining activity [%]": 63.1}
{"Structure (SMILES)": "O=C(c1cc2cc(O)ccc2[nH]1)c1cc2cc(O)ccc2[nH]1", "remaining activity [%]": 78.8}
{"Structure (SMILES)": "c1ccc2c(-c3ccncc3)c[nH]c2c1", "remaining activity [%]": 94.9}
{"Structure (SMILES)": "Nc1nc(Nc2ccc(S(N)(=O)=O)cc2)nn1C(=S)Nc1c(F)cccc1F", "remaining activity [%]": 81.9}
{"Structure (SMILES)": "CN(C)S(=O)(=O)c1ccc2c(c1)/C(=C/c1cc3c([nH]1)CCCC3)C(=O)N2", "remaining activity [%]": 92.1}
{"Structure (SMILES)": "O=C1NC(=O)c2c1c1c3ccccc3[nH]c1n1cncc21", "remaining activity [%]": 53.4}
{"Structure (SMILES)": "Cc1ccc(S(=O)(=O)/C=C/C#N)cc1", "remaining activity [%]": 97.9}
{"Structure (SMILES)": "NC(=O)c1ccc(-c2nc(-c3ccc4c(c3)OCCO4)c(-c3ccccn3)[nH]2)cc1", "remaining activity [%]": 95.9}
{"Structure (SMILES)": "CC(C)(C)c1nc2c3cc[nH]c(=O)c3c3cc(F)ccc3c2[nH]1", "remaining activity [%]": 91.5}
{"Structure (SMILES)": "O=c1cc(N2CCOCC2)oc2c(-c3ccccc3)cccc12", "remaining activity [%]": 93.9}
{"Structure (SMILES)": "N#CC(c1ccnc(NCCc2cccnc2)n1)c1nc2ccccc2s1 (centres unmarked)", "remaining activity [%]": 27.1}
{"data": "Set 2", "Structure (SMILES)": "Cc1cc(NC(=O)c2cccc(S(F)(F)(F)(F)F)c2)cc(-n2ccn3nc(-c4cccnc4)cc23)c1", "observed": "cell-free assay", "technique": "competition with immobilised ligand", "concentration": "1 µM"}
{"target": "PIKFYVE (Homo sapiens, UniProt Q9Y2I7)", "remaining binding [%]": 100}
{"target": "AKT1 (Homo sapiens, UniProt P31749)", "remaining binding [%]": 100}
{"target": "Tyrosine-protein kinase ABL1, non-phosphorylated (ABL1, Homo sapiens, UniProt P00519, H396P)", "remaining binding [%]": 66.9}
{"target": "MET (Homo sapiens, UniProt P08581)", "remaining binding [%]": 77.3}
{"target": "SRPK2 (Homo sapiens, UniProt P78362)", "remaining binding [%]": 100}
{"target": "CDKL1 (Homo sapiens, UniProt Q00532)", "remaining binding [%]": 84.5}
{"data": "Set 3", "target": "Histone acetyltransferase KAT6A, winged helix 1, GST fusion (KAT6A, Homo sapiens, UniProt Q92794, residues 1-85)", "technique": "protein binding microarray", "form": "double-stranded DNA, one strand shown", "matrix": "in vitro", "concentration": "not given", "notes": "8-mer, flanks averaged, mean of 2 arrays, mostly near background", "relative to": "not given", "direction": "higher = stronger binding", "Target sequence (chain)": "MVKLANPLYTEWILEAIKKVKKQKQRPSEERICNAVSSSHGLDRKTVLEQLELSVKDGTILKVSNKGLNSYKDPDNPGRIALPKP"}
{"Sequence": "CCATTGCG", "E-score": 0.149}
{"Sequence": "CATAACGA", "E-score": -0.149}
{"Sequence": "ACATGCGG", "E-score": 0.262}
{"Sequence": "CTGGGCAA", "E-score": -0.262}
{"Sequence": "CCACAAAC", "E-score": -0.154}
{"Sequence": "ATTGGATG", "E-score": -0.237}
{"Sequence": "ATTCTTCC", "E-score": -0.0657}
{"Sequence": "CACCAATC", "E-score": -0.0647}
{"data": "Set 4", "target": "Sal-like protein 4, full length isoform B (SALL4, Homo sapiens, UniProt Q9UJQ4-2, residues 1-616)", "technique": "universal PBM", "form": "double-stranded DNA, one strand shown", "matrix": "in vitro", "concentration": "not given", "notes": "8-mer, flanks averaged, mean of replicates", "direction": "higher = stronger binding"}
{"Sequence": "CCCTGCAG", "E-score": -0.21}
{"Sequence": "CCACCAGA", "E-score": -0.178}
{"Sequence": "GGAGACCC", "E-score": -0.289}
{"Sequence": "AGAAAGTA", "E-score": 0.167}
{"Sequence": "AGATATCT", "E-score": 0.181}
{"Sequence": "CGAAATCA", "E-score": 0.136}
{"Sequence": "ACCTCTAT", "E-score": 0.0914}
{"Sequence": "ACTTTCCT", "E-score": -0.0795}
{"note": "Some of these lines once more (set 4):"}
{"Sequence": "GGAGACCC", "E-score": -0.289}
{"Sequence": "CCACCAGA", "E-score": -0.178}
{"Sequence": "AGATATCT", "E-score": 0.181}
{"Sequence": "CCCTGCAG", "E-score": -0.21}
{"Sequence": "ACTTTCCT", "E-score": -0.0795}
